{"data": "Published values collected from several papers", "OPRK1": "Kappa-type opioid receptor (OPRK1, Homo sapiens, UniProt P41145)", "agrC": "Receptor-histidine kinase AgrC (agrC, Staphylococcus aureus, UniProt O07911)", "note": "± gives the spread as reported."}
{"Structure (SMILES)": "CC[C@H](C)[C@@H](C(=O)N[C@@H](CC(C)C)C(=O)N[C@@H](CO)C(=O)N[C@@H](CO)C(=O)N[C@H](C(=O)N[C@@H](CC(N)=O)C(=O)N[C@H](C(=O)NCC(=O)N[C@@H](CO)C(=O)N[C@@H](CC(N)=O)C(=O)N[C@H](C(=O)N[C@@H](Cc1ccc(O)cc1)C(N)=O)[C@@H](C)O)C(C)C)[C@@H](C)O)N(C)C(=O)[C@H](C)NC(=O)CN(C)C(=O)[C@H](Cc1ccccc1)NC(=O)[C@H](CC(N)=O)NC(=O)[C@H](CC(N)=O)NC(=O)[C@H](CO)NC(=O)[C@H](CO)NC(=O)[C@H](Cc1c[nH]cn1)NC(=O)[C@@H](NC(=O)[C@H](CC(C)C)NC(=O)[C@H](Cc1ccccc1)NC(=O)[C@H](CC(N)=O)NC(=O)[C@H](C)NC(=O)[C@H](CC(C)C)NC(=O)[C@H](CCCNC(=N)N)NC(=O)[C@H](CCC(N)=O)NC(=O)[C@@H](NC(=O)[C@H](C)NC(=O)[C@@H]1CSSC[C@H](NC(=O)[C@H](CCCCN)NC(=O)CC[C@H](NC(=O)CCCCCCCCCCCCCCCCCCC(=O)O)C(=O)O)C(=O)N[C@@H](CC(N)=O)C(=O)N[C@@H]([C@@H](C)O)C(=O)N[C@@H](C)C(=O)N[C@@H]([C@@H](C)O)C(=O)N1)[C@@H](C)O)C(C)C", "target": "Calcitonin receptor (CALCR, Homo sapiens, UniProt P30988)", "test": "cAMP, agonist", "EC50 [nM]": 9.77}
{"Structure (SMILES)": "O=C(Cc1ccc(F)c(Cl)c1)N1CCN[C@@H]2COC[C@H](N3CCCC3)[C@H]21 (relative stereo)", "target": "OPRK1", "EC50 [nM]": "390 ± 100"}
{"Structure (SMILES)": "C[C@@]12CC[C@@H]3[C@H](CC[C@@H]4C[C@@H](O)CC[C@]43C)[C@H]1CC(=O)C2", "target": "GABA-A receptor; GABA-A site (alpha1/beta2 interface) (Homo sapiens, UniProt P14867+P47870)", "EC50 [nM]": 4540}
{"Structure (SMILES)": "CSCC[C@@H]1NC(=O)[C@@H]2CCCN2C(=O)[C@H](Cc2ccccc2)NC(=O)[C@H](CC(=O)O)NC(=O)[C@@H](NC(=O)[C@@H](NC(=O)[C@H](CO)NC(=O)[C@@H](N)Cc2ccc(O)cc2)[C@@H](C)O)CSC1=O", "target": "agrC", "test system": "Staphylococcus aureus cells", "EC50 [nM]": "> 10000"}
{"Structure (SMILES)": "CN1CC[C@@]23c4c5ccc(O)c4C[C@@H]2[C@H](O)C=C[C@@H]3[C@@H]1C5", "target": "OPRK1", "test system": "cell-based", "EC50 [nM]": 2570}
{"Structure (SMILES)": "CC[C@H](C)[C@H](NC(=O)[C@H](C)NC(=O)CNC(=O)[C@H](Cc1ccccc1)NC(=O)[C@H](CC(N)=O)NC(=O)[C@H](CC(N)=O)NC(=O)[C@H](CO)NC(=O)[C@H](CO)NC(=O)[C@H](Cc1c[nH]cn1)NC(=O)[C@@H](NC(=O)[C@H](CC(C)C)NC(=O)[C@H](Cc1ccccc1)NC(=O)[C@H](CC(N)=O)NC(=O)[C@H](C)NC(=O)[C@H](CC(C)C)NC(=O)[C@H](CCCNC(=N)N)NC(=O)[C@H](CCC(N)=O)NC(=O)[C@@H](NC(=O)[C@H](C)NC(=O)[C@@H]1CSSC[C@H](NC(=O)[C@H](CCCCN)NC(=O)[C@H](CCCNC(=N)N)NC(=O)[C@H](CCCCN)NC(=O)[C@H](CCC(=O)O)NC(=O)[C@@H](NC(=O)[C@H](CCC(N)=O)NC(=O)[C@H](Cc2c[nH]cn2)NC(=O)[C@H](CO)NC(=O)[C@H](CCC(=O)O)NC(=O)[C@@H](NC(=O)[C@@H]2CCCN2C(=O)[C@@H](N)[C@@H](C)O)[C@@H](C)CC)C(C)C)C(=O)N[C@@H](CC(N)=O)C(=O)N[C@@H]([C@@H](C)O)C(=O)N[C@@H](C)C(=O)N[C@@H]([C@@H](C)O)C(=O)N1)[C@@H](C)O)C(C)C)C(=O)N[C@@H](CC(C)C)C(=O)N[C@@H](CO)C(=O)N[C@@H](CO)C(=O)N[C@H](C(=O)N[C@@H](CC(N)=O)C(=O)N[C@H](C(=O)NCC(=O)N[C@@H](CO)C(=O)N[C@@H](CC(N)=O)C(=O)N[C@H](C(=O)N[C@@H](Cc1ccc(O)cc1)C(N)=O)[C@@H](C)O)C(C)C)[C@@H](C)O", "target": "Amylin receptor AMY1, CALCR/RAMP1 (Homo sapiens, UniProt O60894+P30988)", "test": "cAMP accumulation, agonist", "test system": "COS-7, transfected", "EC50 [nM]": 1.78}
{"Structure (SMILES)": "CC(C)[C@H](NC(=O)[C@@H]1CSSC(C)(C)[C@H](NC(=O)[C@@H](N)CC(=O)O)C(=O)N[C@@H](Cc2ccccc2)C(=O)N[C@@H](Cc2c[nH]c3ccccc23)C(=O)N[C@@H](CCCCN)C(=O)N[C@@H](Cc2ccc(O)cc2)C(=O)N1)C(=O)O", "target": "UTS2R (Homo sapiens, UniProt Q9UKP6, Y283A)", "test": "IP1 accumulation, agonist, HTRF", "test system": "HEK293T", "setting": "1 h, 37 °C, Y283A mutant, 6.60", "EC50 [nM]": 3.98}
{"Structure (SMILES)": "CCN(Cc1ccccc1)C(=O)CCc1nc(CN2CCN(C(=O)Cc3ccc(OC)c(OC)c3)CC2)no1", "target": "SCN9A (Homo sapiens, UniProt Q15858)", "test": "activation V1/2 shift, whole-cell patch clamp", "test system": "stable HEK cells, NaV1.7 current", "EC50 [nM]": "179 ± 78"}
{"Structure (SMILES)": "CC[C@H](C)[C@H]1CC(=O)N[C@@H](CCSC)C(=O)SC[C@H](NC(=O)[C@@H](NC(=O)[C@H](CO)NC(=O)[C@@H](N)Cc2ccc(O)cc2)[C@@H](C)O)C(=O)N[C@@H](CC(=O)O)C(=O)N[C@@H](Cc2ccccc2)C(=O)N1", "target": "agrC", "test system": "Staphylococcus aureus cells", "EC50 [nM]": "> 10000"}
{"Structure (SMILES)": "CN1CCC(c2c[nH]c3ccc(O)cc23)CC1", "target": "HTR1F (Homo sapiens, UniProt P30939)", "test": "G protein activation, agonist, BRET", "EC50 [nM]": 3.61}
{"Structure (SMILES)": "O=C(Cc1ccc(Cl)c(Cl)c1)N1CCNC2COCC(N3CCCC3)C21 (centres unmarked)", "target": "OPRK1", "test": "β-arrestin recruitment, agonist", "EC50 [nM]": 11000}
{"Structure (SMILES)": "Cc1cc(C(c2ccc(Cl)cc2)c2ccc(Cl)cc2)sc1C(=O)N[C@@H](CCCNC(=N)N)C(=O)O", "target": "C3AR1 (Homo sapiens, UniProt Q16581)", "test": "β-arrestin-2 recruitment, agonist, NanoBiT", "EC50 [nM]": 138}
{"Structure (SMILES)": "CC[C@H](C)[C@@H]1NC(=O)[C@H](Cc2ccccc2)NC(=O)[C@H](C)NC(=O)[C@@H](NC(=O)[C@@H](NC(=O)[C@H](CO)NC(=O)[C@@H](N)Cc2ccc(O)cc2)[C@@H](C)O)CSC(=O)[C@H](CCSC)NC1=O", "target": "agrC", "test system": "Staphylococcus aureus cells", "EC50 [nM]": "> 10000"}
{"Structure (SMILES)": "CC(C)C[C@H](NC(=O)[C@H](CCC(N)=O)NC(=O)[C@H](CCCNC(=N)N)NC(=O)[C@@H](N)CS)C(=O)N[C@@H](CCCNC(=N)N)C(=O)N[C@@H](CCCCN)C(=O)NCC(=O)N[C@@H](CCCCN)C(=O)N[C@@H](Cc1ccccc1)C(=O)N[C@@H](Cc1ccccc1)C(=O)N[C@@H](CO)C(=O)N[C@@H](CCC(=O)O)C(=O)NCC(=O)NCC(=O)N[C@@H](CO)C(=O)NCC(=O)NCC(=O)N[C@H](C(=O)N[C@@H](CO)C(=O)N[C@@H](Cc1ccccc1)C(=O)N[C@@H](CCC(=O)O)C(=O)N[C@@H](CCC(N)=O)C(=O)N[C@@H](Cc1ccccc1)C(=O)N[C@@H](Cc1c[nH]c2ccccc12)C(=O)N[C@@H](C)C(=O)N[C@@H](Cc1c[nH]c2ccccc12)C(=O)N[C@@H](CC(C)C)C(=O)N[C@@H](Cc1c[nH]c2ccccc12)C(=O)N1CCC[C@H]1C(=O)O)[C@@H](C)O", "target": "PAK4/MDM2 (Homo sapiens, UniProt O96013+Q00987)", "test": "ternary complex formation, fluorescence polarization", "EC50 [nM]": 347}
{"Structure (SMILES)": "CC[C@H](C)[C@H](NC(=O)[C@H](Cc1ccc(O)cc1)NC(=O)[C@H](CCCNC(=N)N)NC(=O)[C@H](CCCNC(=N)N)NC(=O)[C@H](CC(C)C)NC(=O)[C@H](CC(=O)O)NC(=O)[C@H](C)NC(=O)[C@H](C)NC(=O)[C@H](Cc1ccc(O)cc1)NC(=O)[C@H](CCC(N)=O)NC(=O)[C@H](C)NC(=O)[C@H](CCSC)NC(=O)[C@H](CCC(N)=O)NC(=O)[C@H](CCC(=O)O)NC(=O)[C@@H]1CCCN1C(=O)[C@@H](NC(=O)[C@H](C)NC(=O)[C@H](CC(N)=O)NC(=O)[C@H](CC(=O)O)NC(=O)CNC(=O)[C@@H]1CCCN1C(=O)[C@H](Cc1ccc(O)cc1)NC(=O)[C@@H](NC(=O)[C@@H]1CCCN1C(=O)[C@H](CCCCN)NC(=O)[C@H](CC(C)C)NC(=O)[C@@H]1CCCN1C(=O)[C@@H](N)Cc1ccc(O)cc1)C(C)C)[C@@H](C)O)C(=O)N[C@@H](CC(N)=O)C(=O)N[C@@H](CCSC)C(=O)N[C@@H](CC(C)C)C(=O)N[C@H](C(=O)N[C@@H](CCCNC(=N)N)C(=O)N1CCC[C@H]1C(=O)N[C@@H](CCCNC(=N)N)C(=O)N[C@@H](Cc1ccc(O)cc1)C(N)=O)[C@@H](C)O", "target": "NPY1R (Homo sapiens, UniProt P25929)", "test": "agonist", "EC50 [nM]": 3.16}
{"Structure (SMILES)": "O=C(O)CCn1c(=O)oc2cc(Cl)c(Cl)cc21", "target": "ADORA2A (Homo sapiens, UniProt P29274)", "test": "agonist", "EC50 [nM]": "> 100000"}
{"Structure (SMILES)": "CC[C@H](C)[C@H](NC(=O)[C@H](CCCNC(=N)N)NC(=O)[C@H](CCCNC(=N)N)NC(=O)[C@H](CC(C)C)NC(=O)[C@H](Cc1ccccc1)NC(=O)CNC(=O)CN)C(=O)N[C@@H](CCCNC(=N)N)C(=O)N1CCC[C@H]1C(=O)N[C@@H](CCCCN)C(=O)N[C@@H](CC(C)C)C(=O)N[C@@H](CCCCN)C(=O)N[C@@H](Cc1c[nH]c2ccccc12)C(=O)N[C@@H](CC(=O)O)C(=O)N[C@@H](CC(N)=O)C(=O)N[C@@H](CCC(N)=O)C(=O)O", "target": "GPR139 (Homo sapiens, UniProt Q6DWJ6)", "test": "calcium response, agonist, BRET", "test system": "HEK293T/17, transfected", "EC50 [nM]": "24300 ± 4010"}
{"note": "Repeated from above:"}
{"Structure (SMILES)": "CC[C@H](C)[C@H](NC(=O)[C@H](C)NC(=O)CNC(=O)[C@H](Cc1ccccc1)NC(=O)[C@H](CC(N)=O)NC(=O)[C@H](CC(N)=O)NC(=O)[C@H](CO)NC(=O)[C@H](CO)NC(=O)[C@H](Cc1c[nH]cn1)NC(=O)[C@@H](NC(=O)[C@H](CC(C)C)NC(=O)[C@H](Cc1ccccc1)NC(=O)[C@H](CC(N)=O)NC(=O)[C@H](C)NC(=O)[C@H](CC(C)C)NC(=O)[C@H](CCCNC(=N)N)NC(=O)[C@H](CCC(N)=O)NC(=O)[C@@H](NC(=O)[C@H](C)NC(=O)[C@@H]1CSSC[C@H](NC(=O)[C@H](CCCCN)NC(=O)[C@H](CCCNC(=N)N)NC(=O)[C@H](CCCCN)NC(=O)[C@H](CCC(=O)O)NC(=O)[C@@H](NC(=O)[C@H](CCC(N)=O)NC(=O)[C@H](Cc2c[nH]cn2)NC(=O)[C@H](CO)NC(=O)[C@H](CCC(=O)O)NC(=O)[C@@H](NC(=O)[C@@H]2CCCN2C(=O)[C@@H](N)[C@@H](C)O)[C@@H](C)CC)C(C)C)C(=O)N[C@@H](CC(N)=O)C(=O)N[C@@H]([C@@H](C)O)C(=O)N[C@@H](C)C(=O)N[C@@H]([C@@H](C)O)C(=O)N1)[C@@H](C)O)C(C)C)C(=O)N[C@@H](CC(C)C)C(=O)N[C@@H](CO)C(=O)N[C@@H](CO)C(=O)N[C@H](C(=O)N[C@@H](CC(N)=O)C(=O)N[C@H](C(=O)NCC(=O)N[C@@H](CO)C(=O)N[C@@H](CC(N)=O)C(=O)N[C@H](C(=O)N[C@@H](Cc1ccc(O)cc1)C(N)=O)[C@@H](C)O)C(C)C)[C@@H](C)O", "target": "Amylin receptor AMY1, CALCR/RAMP1 (Homo sapiens, UniProt O60894+P30988)", "test": "cAMP accumulation, agonist", "test system": "COS-7, transfected", "EC50 [nM]": 1.78}
{"Structure (SMILES)": "O=C(O)CCn1c(=O)oc2cc(Cl)c(Cl)cc21", "target": "ADORA2A (Homo sapiens, UniProt P29274)", "test": "agonist", "EC50 [nM]": "> 100000"}
